Results from different studies.
± marks the error that the study gave.

CN(C)c1ccc(-c2oc3ccccc3c(=O)c2OCc2ccccc2)cc1  blood glucose (diabetic rat; 5 mg/kg, day 14, p-nitrophenyl β-glucoside induced): 208 ± 4.88 mg/dL
CCC(=O)N(C)c1ccc(Cl)c(Cl)c1  fold activation (CAR3 constitutive androstane receptor, human; reporter gene, agonist; 100 µM; reference: vehicle): 1 fold
CC[C@H]1[C@@H](O)[C@@H]2[C@H](CC[C@]3(C)[C@@H]([C@H](C)CCOS(=O)(=O)[O-])CC[C@@H]23)[C@@]2(C)CC[C@@H](O)C[C@@H]12.[Na+]  fractional area (immunohistochemistry, item: galectin-3; ob/ob NASH mouse model, liver; 3.0 mg/kg, 16 weeks): 5.4 ± 0.2%
COc1cc2c(OC3OCC(OC)C(OC)C3OC(=O)c3ccc(Br)cc3)c3c(c(-c4ccc5c(c4)OCO5)c2cc1OC)C(=O)OC3 (stereo not drawn)  live/dead cell ratio (FaDu spheroids; Hoechst/EthD-1 staining; 0.1 µM, 72 h): decreased
COc1cc(CNC(=O)C[C@H](C)CCC=C(C)C)ccc1O  growth percent (EKVX; SRB; 10 µM, 48 h): 86.3%
O=c1cc(-c2ccc(O)cc2)oc2c(-c3ccc(O)c(O)c3)c(O)cc(O)c12  EC50 (DPPH scavenging, absorbance): 60 µM
COc1cc(CNC(=O)C[C@H](C)CCC=C(C)C)ccc1OCc1cn(-c2cccc(C(F)(F)F)c2)nn1  growth percent (Hs-578T breast cancer cells; SRB; 10 µM, 48 h): 94.3%
CO[C@@H]1[C@H](O)[C@@H](COP(=O)(O)OP(=O)([S-])OP(=O)(S)OC[C@H]2O[C@@H](n3cnc4c(=O)[nH]c(N)nc43)[C@H](O)[C@@H]2O)O[C@H]1n1c[n+](C)c2c(O)nc(N)nc21 (mixture of isomers)  decapping (Schizosaccharomyces pombe Dcp1/Dcp2 complex; substrate; capped short RNA; 5 min, 30 °C): 29.7 ± 2.8%
COc1cc(CNC(=O)C[C@H](C)CCC=C(C)C)ccc1OCc1cn(-c2ccccc2Cl)nn1  growth percent (RXF 393; SRB; 10 µM, 48 h): 72.6%
CC(C)C[C@H](NC(=O)[C@H](CO)NC(=O)[C@H](CCCNC(=N)N)NC(=O)[C@H](CC(=O)O)NC(=O)[C@H](CCC(=O)O)NC(=O)[C@H](C)NC(=O)[C@@H]1CCCN1C(=O)[C@H](C)NC(=O)[C@H](CCC(=O)O)NC(=O)[C@@H]1CCCN1C(=O)[C@@H]1CCCN1)C(N)=O  HVA level reduction (dopamine system; rhesus monkey, contralateral globus pallidus; intranasal, dose not given, repeated dose escalation; reference: vehicle): 21%
COc1cc(CNC(=O)C[C@H](C)CCC=C(C)C)ccc1OCc1cn(-c2ccc(Cl)c(Cl)c2)nn1  growth percent (MDA-MB-435 melanoma cells; SRB; 10 µM, 48 h): 91.3%
O=c1c(OCc2ccccc2)c(-c2ccc([N+](=O)[O-])cc2)oc2ccccc12  blood glucose (diabetic rat; 7.5 mg/kg, day 14, p-nitrophenyl β-glucoside induced): 288 ± 5.38 mg/dL

Repeated from above:
COc1cc2c(OC3OCC(OC)C(OC)C3OC(=O)c3ccc(Br)cc3)c3c(c(-c4ccc5c(c4)OCO5)c2cc1OC)C(=O)OC3 (stereo not drawn)  live/dead cell ratio (FaDu spheroids; Hoechst/EthD-1 staining; 0.1 µM, 72 h): decreased
